Measurements of several laboratories.
Each line is one published result; not all experiments were run side by side. ± gives the spread as reported.

CC(C)[C@@H]1NC(=O)[C@H](Cc2ccccc2)NC(=O)[C@@H]2NC(=O)[C@H](Cc3ccccc3)NC(=O)[C@@H]3CCCN3C(=O)CNC(=O)[C@H](Cc3ccccc3)NC(=O)[C@@H]3CNCCCC[C@@H](C(=O)O)NC(=O)[C@@H]4NC(=O)[C@H](CC(N)=O)NC(=O)CNC(=O)[C@H]([C@@H](O)C(=O)O)NC(=O)[C@H](CSC[C@@H](NC(=O)[C@H](CCC(N)=O)NC(=O)[C@H](CCCCNC(=O)c5ccc(NN)nc5)NC(=O)[C@@H](N)CS[C@H]4C)C(=O)N[C@@H](CS[C@H]2C)C(=O)N3)NC1=O [technetium-99m labelled]  tissue uptake (rat, saline control, lung; intravenous, 2 h after tracer, tracer 2 h after reperfusion): 0.25 ± 0.04 %ID/g
N=C(N)NCCC[C@@H]1NC(=O)[C@H](CCCCNC(=O)c2ccc(CNC34CNCCNCC(N)(CNCCNC3)CNCCNC4)cc2)NC(=O)[C@@H](Cc2ccc(O)cc2)NC(=O)[C@H](CC(=O)O)NC(=O)CNC1=O [copper-64 labelled]  tissue uptake (ex vivo biodistribution; male athymic nude mouse, PC-3 tumour, kidneys; 7.4 MBq, 48 h): 1.7 ± 0.19 %ID/g
CC[C@H](C)[C@H](NC(=O)[C@H](Cc1ccccc1)NC(=O)[C@H](CCC(=O)O)NC(=O)[C@H](CCCNC(=N)N)NC(=O)[C@H](C)NC(=O)[C@H](C)NC(=O)[C@H](CCC(N)=O)NC(=O)[C@H](CCC(=O)O)NC(=O)[C@H](CCC(=O)O)NC(=O)[C@H](CC(C)C)NC(=O)[C@H](Cc1ccc(O)cc1)NC(=O)[C@H](CO)NC(=O)[C@H](CO)NC(=O)[C@@H](NC(=O)[C@H](CC(=O)O)NC(=O)[C@H](CO)NC(=O)[C@@H](NC(=O)[C@H](Cc1ccccc1)NC(=O)[C@@H](NC(=O)CNC(=O)[C@H](CCC(=O)O)NC(=O)[C@H](C)NC(=O)CCc1c[nH]cn1)[C@@H](C)O)[C@@H](C)O)C(C)C)C(=O)N[C@@H](C)C(=O)N[C@@H](Cc1c[nH]c2ccccc12)C(=O)N[C@@H](CC(C)C)C(=O)N[C@H](C(=O)N[C@@H](CCCNC(=N)N)C(=O)NCC(=O)N[C@@H](CCCNC(=N)N)C(=O)N[C@@H](CCCCNC(=O)COCCOCCNC(=O)COCCOCCNC(=O)CC[C@H](NC(=O)CCCCCCCCCCCCCCCCC(=O)O)C(=O)O)C(=O)NCC(=O)NCC(=O)N[C@@H](CO)C(=O)N[C@@H](CCCCNc1c(NCCCCCN(O)C(=O)CCC(=O)NCCCCCN(O)C(=O)CCC(=O)NCCCCCN(O)C(C)=O)c(=O)c1=O)C(=O)O)C(C)C [zirconium-89 labelled]  tissue uptake (rat, colon; iv, 3 nmol/kg, 72 h, ex vivo): 0.2 %ID/g
CCCCCCCCCCCCCCCC(=O)OCC(CSC[C@H](N)C(=O)N[C@@H](CO)C(=O)N[C@@H](CCCCN)C(=O)N[C@@H](CCCCN)C(=O)N[C@@H](CCCCN)C(=O)N[C@@H](CCCCN)C(=O)Nc1ccc(Cn2c(O)nc3c(N)nc(NCCCC)nc32)cc1)OC(=O)CCCCCCCCCCCCCCC (some centres unmarked)  viability (HFF-1; 10 µg/mL, 48 h): 107%
O=C(O)C[C@H](NC(=O)[C@H](CC(=O)O)NC(=O)[C@H](CC(=O)O)NC(=O)[C@H](CC(=O)O)NC(=O)[C@H](CC(=O)O)NC(=O)[C@H](CC(=O)O)NC(=O)[C@H](CC(=O)O)NC(=O)[C@H](CC(=O)O)NC(=O)[C@H](CC(=O)O)NC(=O)[C@H](CC(=O)O)NC(=O)[C@H](CC(=O)O)NC(=O)[C@H](CCCCNC(=O)c1ccc(C(=O)NCCOCCOB2BBBBBB3BBBB3B2)cc1)NC(=O)CN1CCN(CC(=O)O)CCN(CC(=O)O)CCN(CC(=O)O)CC1)C(=O)O [gallium-67 labelled]  tissue uptake (gamma counting; mouse, ddY, male, 6 weeks old, femur; intravenous, 37 kBq, 1 h): 9.63 %ID/g
Cc1ccccc1NC(=O)Nc1ccc(CC(=O)N[C@@H](CCCCNC(=O)/C=C/c2cccnc2)C(=O)N[C@@H](CCCC(=O)O)C(=O)NC2(C(=O)NCCOCCOCCOCCOCC(=O)N[C@@H](CCCCNC(=S)Nc3ccc(CCCN(CCN4CCN(CP(=O)(O)O)CCN(CP(=O)(O)O)CC4)CC(=O)O)cc3)C(N)=O)CCCCC2)cc1 [gallium-68 labelled]  tumour uptake (mice with B16-F10 tumour, tumour; intravenous, 2 h): 13.7 ± 2.4 %ID/g
C[C@@H](O)[C@@H](CO)NC(=O)[C@@H](CCCNC(=N)N)NC(=O)[C@@H]1CCCN1C(=O)[C@@H]1CSSC[C@H](NC(=O)[C@H](Cc2ccccc2)NC(=O)CN2CCN(CC(=O)O)CCN(CC(=O)O)CCN(CC(=O)O)CC2)C(=O)N[C@@H](Cc2ccc(O)cc2)C(=O)N[C@@H](Cc2ccccc2)C(=O)N[C@@H](CCC(N)=O)C(=O)N[C@@H](CC(N)=O)C(=O)N1 [gallium-68 labelled]  tissue uptake (Wistar rat, liver; intravenous, 8 MBq, 120 min, group mean): 0.05 %ID/g
CC(C)C[C@@H]1NC(=O)[C@H](CC(C)C)NC(=O)[C@H](Cc2c[nH]c3ccccc23)NC(=O)[C@H](CO)NC(=O)[C@H](Cc2c[nH]c3ccccc23)NC(=O)[C@@H]2CCCN2C(=O)[C@H](CC(C)C)NC(=O)[C@H](Cc2c[nH]cn2)NC(=O)[C@@H]2CCCN2C(=O)[C@H](CC(N)=O)NC(=O)[C@H](C)NC(=O)[C@H](Cc2ccc(O)cc2)NC(=O)[C@H](CS)NC(=O)[C@H](CCCCNC(=O)CN2CCN(CC(=O)O)CCN(CC(=O)O)CCN(CC(=O)O)CC2)NC1=O [lutetium-177 labelled]  tissue uptake (Balb/c mouse, female, 4T1 tumour, intestine; intravenous, 3.7 MBq, 72 h): 1.02 %ID
